Published values from different studies.
Compare with care: the assays were run in different laboratories. ± gives the spread as reported.

| SMILES | assay | system | setting | half-life [min] |
| --- | --- | --- | --- | --- |
| CNC(=O)C[C@H](Cc1ccc(F)cc1)NC(=O)[C@@H](Cc1ccc(Cl)cc1Cl)NC(=O)[C@H](N)Cc1ccccc1C#N | metabolic stability | CD-1 mouse, liver microsomes | 1 µM | 0.9 |
| COCC12CCC(OC)C34C5CC6(O)C(OC)C(O)C(O)(C5C6OC(=O)c5ccccc5)C(C(OC)C13)C4N(C)C2 (stereo not shown) |  | Sprague-Dawley rat, plasma | oral, dose not given, with H in PCW extract | 607 ± 307 |
| C#Cc1c(F)ccc2cc(O)cc(-c3ncc4c(N5CC6CCC(C5)N6C(=O)OC(C)OC(=O)[C@@H](N)C(C)C)nc(OC[C@@]56CCCN5C[C@H](F)C6)nc4c3F)c12 (stereo partly shown) | metabolic stability | mouse, liver microsomes | 1 µM, pH 7.4 | 2.15 |
| NC1(CNC(=O)Oc2cccc([C@H]3CCC[C@@]4(C3)OOC3(O4)C4CC5CC(C4)CC3C5)c2)CCCC1 (stereo partly shown) | metabolic stability | human, liver microsomes |  | 96.8 |
| CCN(CC)CCOc1ccc(-c2nnn(Cc3ccc(OC)cc3)c2N)cc1 | metabolic stability | human, liver microsomes |  | 162 |
| CCc1nnc(-c2c(OC)cc(-c3cnc4cc(-c5cnn(C)c5)ccn34)cc2OC)o1 | metabolic stability | mouse, liver microsomes |  | > 149 |
| CSCC[C@@H]1NC(=O)[C@H](C(C)C)NC(=O)[C@H](CCCNC(=N)N)NC(=O)CNC(=O)[C@@H]2CCCN2C(=O)[C@@H](NC(=O)CNC(=O)[C@H](CO)NC(=O)CNC(=O)[C@H](CO)NC(=S)Nc2ccc(C[C@H]3CN(CC(=O)O)CCN(CC(=O)O)CCN3CC(=O)O)cc2)CSSC[C@@H](C(N)=O)NC(=O)[C@@H]2CCCN2C(=O)CNC(=O)[C@H](CCC(=O)O)NC(=O)[C@H](CC(=O)O)NC(=O)[C@H](CC(=O)O)NC(=O)CNC(=O)[C@H](CC(C)C)NC(=O)[C@H](Cc2c[nH]cn2)NC(=O)[C@H](CC(C)C)NC(=O)CNC(=O)[C@H](Cc2c[nH]cn2)NC1=O [copper-64 labelled] | dynamic PET | CD rat, myocardial infarction model, fibrotic infarct myocardium | intravenous, 18.5 MBq, 15 to 60 min | 29.3 ± 5.8 |
| COCCCCNC(=O)CC(Cc1ccc(F)cc1)NC(=O)C(Cc1ccc(Cl)cc1Cl)NC(=O)C(N)Cc1ccccc1C#N (stereo not shown) | metabolic stability | CD-1 mouse, liver microsomes | 1 µM | 14 |
| CCN1CC2(COC)C(O)CC(OC)C34C5CC6(O)C(OC)C(O)C(O)(C5C6OC(=O)c5ccccc5)C(C(OC)C23)C14 (stereo not shown) |  | Sprague-Dawley rat, plasma | oral, dose not given, with NADES in PCW extract | 289 ± 128 |
| CSCC[C@@H]1NC(=O)[C@H](C(C)C)NC(=O)[C@H](CCCNC(=N)N)NC(=O)[C@@H]2CCCN2C(=O)CNC(=O)[C@@H](NC(=O)CNC(=O)[C@H](CO)NC(=O)CNC(=O)[C@H](CO)NC(=S)Nc2ccc(C[C@H]3CN(CC(=O)O)CCN(CC(=O)O)CCN3CC(=O)O)cc2)CSSC[C@@H](C(N)=O)NC(=O)[C@@H]2CCCN2C(=O)CNC(=O)[C@H](CCC(=O)O)NC(=O)[C@H](CC(=O)O)NC(=O)[C@H](CC(=O)O)NC(=O)CNC(=O)[C@H](CC(C)C)NC(=O)[C@H](Cc2c[nH]cn2)NC(=O)[C@H](CC(C)C)NC(=O)CNC(=O)[C@H](Cc2c[nH]cn2)NC1=O [copper-64 labelled] | dynamic PET | CD rat, myocardial infarction model, fibrotic infarct myocardium | intravenous, 18.5 MBq, 0 to 5 min | 2.6 ± 0.4 |

For quick reference, copied from above:
| SMILES | assay | system | setting | half-life [min] |
| --- | --- | --- | --- | --- |
| CCc1nnc(-c2c(OC)cc(-c3cnc4cc(-c5cnn(C)c5)ccn34)cc2OC)o1 | metabolic stability | mouse, liver microsomes |  | > 149 |
